Experimental data of several laboratories.
Each numbered part is a random draw from the data of one study; scales do not carry over between parts.
Sequence of UniProt O14733 (whole entry, looked up): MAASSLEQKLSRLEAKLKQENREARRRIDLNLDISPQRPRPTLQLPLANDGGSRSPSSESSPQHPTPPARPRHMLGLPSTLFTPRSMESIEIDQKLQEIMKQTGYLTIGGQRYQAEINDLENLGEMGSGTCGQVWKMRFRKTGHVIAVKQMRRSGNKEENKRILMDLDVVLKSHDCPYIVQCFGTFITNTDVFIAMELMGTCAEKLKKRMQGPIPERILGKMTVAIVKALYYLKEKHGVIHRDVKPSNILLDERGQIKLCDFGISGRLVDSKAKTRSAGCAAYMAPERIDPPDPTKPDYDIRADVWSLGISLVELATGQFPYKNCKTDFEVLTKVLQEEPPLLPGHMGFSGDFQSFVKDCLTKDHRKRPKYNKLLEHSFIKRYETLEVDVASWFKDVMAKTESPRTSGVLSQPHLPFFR
Sequence of UniProt P07949 (whole entry, unmodified, looked up): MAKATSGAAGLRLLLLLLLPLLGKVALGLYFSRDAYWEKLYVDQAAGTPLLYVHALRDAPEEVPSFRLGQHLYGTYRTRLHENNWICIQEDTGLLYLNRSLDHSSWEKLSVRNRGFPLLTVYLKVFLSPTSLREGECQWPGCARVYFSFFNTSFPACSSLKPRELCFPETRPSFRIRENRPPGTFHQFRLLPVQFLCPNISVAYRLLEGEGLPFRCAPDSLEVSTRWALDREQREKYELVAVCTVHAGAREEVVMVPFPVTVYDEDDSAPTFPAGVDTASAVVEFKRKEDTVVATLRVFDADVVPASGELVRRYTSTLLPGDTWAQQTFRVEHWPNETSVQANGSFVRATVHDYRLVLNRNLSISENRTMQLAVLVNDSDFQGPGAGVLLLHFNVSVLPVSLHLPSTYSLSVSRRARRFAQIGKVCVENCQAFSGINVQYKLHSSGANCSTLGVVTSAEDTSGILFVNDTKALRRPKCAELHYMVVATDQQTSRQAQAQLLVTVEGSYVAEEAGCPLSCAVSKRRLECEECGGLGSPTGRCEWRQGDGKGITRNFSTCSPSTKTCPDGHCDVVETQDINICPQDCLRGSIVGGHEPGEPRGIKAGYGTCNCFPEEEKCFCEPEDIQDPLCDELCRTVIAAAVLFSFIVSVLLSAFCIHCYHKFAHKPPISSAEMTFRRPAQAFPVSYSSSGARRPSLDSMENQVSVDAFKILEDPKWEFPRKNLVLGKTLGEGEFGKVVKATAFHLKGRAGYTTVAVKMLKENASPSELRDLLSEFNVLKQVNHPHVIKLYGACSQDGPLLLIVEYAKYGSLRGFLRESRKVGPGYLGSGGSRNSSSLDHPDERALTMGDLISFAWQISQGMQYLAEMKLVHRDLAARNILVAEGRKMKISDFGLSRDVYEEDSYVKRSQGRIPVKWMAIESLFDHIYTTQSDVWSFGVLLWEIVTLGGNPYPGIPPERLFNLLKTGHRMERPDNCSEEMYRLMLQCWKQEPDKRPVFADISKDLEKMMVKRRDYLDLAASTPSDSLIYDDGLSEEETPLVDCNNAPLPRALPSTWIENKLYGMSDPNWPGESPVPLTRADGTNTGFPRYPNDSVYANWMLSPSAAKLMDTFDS
Sequence of UniProt P54756 (whole entry, looked up): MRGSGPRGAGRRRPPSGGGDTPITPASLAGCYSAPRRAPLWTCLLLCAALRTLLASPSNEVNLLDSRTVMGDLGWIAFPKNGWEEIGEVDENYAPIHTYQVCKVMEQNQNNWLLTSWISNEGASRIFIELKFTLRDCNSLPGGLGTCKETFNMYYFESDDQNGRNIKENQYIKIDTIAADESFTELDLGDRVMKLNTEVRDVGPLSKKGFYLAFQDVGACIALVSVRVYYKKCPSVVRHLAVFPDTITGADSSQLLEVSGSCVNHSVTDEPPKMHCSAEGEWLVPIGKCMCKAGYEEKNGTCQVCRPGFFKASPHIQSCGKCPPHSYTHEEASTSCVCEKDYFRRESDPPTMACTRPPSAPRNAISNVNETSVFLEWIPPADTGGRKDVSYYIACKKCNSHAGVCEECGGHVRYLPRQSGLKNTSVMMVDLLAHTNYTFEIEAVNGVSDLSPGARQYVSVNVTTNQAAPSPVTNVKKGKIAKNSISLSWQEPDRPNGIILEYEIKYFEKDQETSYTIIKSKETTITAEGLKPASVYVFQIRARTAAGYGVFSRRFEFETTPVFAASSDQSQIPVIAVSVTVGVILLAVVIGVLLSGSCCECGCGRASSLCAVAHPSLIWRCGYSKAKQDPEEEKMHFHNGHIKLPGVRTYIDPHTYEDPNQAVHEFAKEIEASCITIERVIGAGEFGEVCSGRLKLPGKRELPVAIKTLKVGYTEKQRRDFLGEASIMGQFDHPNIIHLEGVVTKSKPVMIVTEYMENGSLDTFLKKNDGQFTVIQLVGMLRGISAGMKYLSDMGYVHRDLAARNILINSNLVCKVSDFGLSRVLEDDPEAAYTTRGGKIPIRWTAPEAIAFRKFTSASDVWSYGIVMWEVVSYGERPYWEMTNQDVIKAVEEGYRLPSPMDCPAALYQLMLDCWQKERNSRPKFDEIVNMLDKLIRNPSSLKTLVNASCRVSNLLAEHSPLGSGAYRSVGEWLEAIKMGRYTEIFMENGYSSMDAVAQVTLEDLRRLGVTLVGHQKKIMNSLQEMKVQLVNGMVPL
Sequence of UniProt P06239 (whole entry, looked up): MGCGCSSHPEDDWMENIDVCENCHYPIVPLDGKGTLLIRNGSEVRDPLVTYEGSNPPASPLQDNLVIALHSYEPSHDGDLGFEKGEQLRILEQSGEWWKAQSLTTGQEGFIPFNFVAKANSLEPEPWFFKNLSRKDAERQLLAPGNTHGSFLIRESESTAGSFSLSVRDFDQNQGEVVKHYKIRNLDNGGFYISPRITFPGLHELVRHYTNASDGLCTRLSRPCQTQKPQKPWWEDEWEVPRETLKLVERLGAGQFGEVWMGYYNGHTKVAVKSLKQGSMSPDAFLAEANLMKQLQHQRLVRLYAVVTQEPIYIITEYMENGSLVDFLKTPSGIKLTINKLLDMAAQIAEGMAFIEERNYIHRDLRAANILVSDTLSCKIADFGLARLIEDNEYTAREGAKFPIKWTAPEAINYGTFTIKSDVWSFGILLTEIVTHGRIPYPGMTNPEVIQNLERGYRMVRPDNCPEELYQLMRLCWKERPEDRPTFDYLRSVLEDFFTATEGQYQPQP
Sequence of UniProt P10721 (whole entry, unmodified, looked up): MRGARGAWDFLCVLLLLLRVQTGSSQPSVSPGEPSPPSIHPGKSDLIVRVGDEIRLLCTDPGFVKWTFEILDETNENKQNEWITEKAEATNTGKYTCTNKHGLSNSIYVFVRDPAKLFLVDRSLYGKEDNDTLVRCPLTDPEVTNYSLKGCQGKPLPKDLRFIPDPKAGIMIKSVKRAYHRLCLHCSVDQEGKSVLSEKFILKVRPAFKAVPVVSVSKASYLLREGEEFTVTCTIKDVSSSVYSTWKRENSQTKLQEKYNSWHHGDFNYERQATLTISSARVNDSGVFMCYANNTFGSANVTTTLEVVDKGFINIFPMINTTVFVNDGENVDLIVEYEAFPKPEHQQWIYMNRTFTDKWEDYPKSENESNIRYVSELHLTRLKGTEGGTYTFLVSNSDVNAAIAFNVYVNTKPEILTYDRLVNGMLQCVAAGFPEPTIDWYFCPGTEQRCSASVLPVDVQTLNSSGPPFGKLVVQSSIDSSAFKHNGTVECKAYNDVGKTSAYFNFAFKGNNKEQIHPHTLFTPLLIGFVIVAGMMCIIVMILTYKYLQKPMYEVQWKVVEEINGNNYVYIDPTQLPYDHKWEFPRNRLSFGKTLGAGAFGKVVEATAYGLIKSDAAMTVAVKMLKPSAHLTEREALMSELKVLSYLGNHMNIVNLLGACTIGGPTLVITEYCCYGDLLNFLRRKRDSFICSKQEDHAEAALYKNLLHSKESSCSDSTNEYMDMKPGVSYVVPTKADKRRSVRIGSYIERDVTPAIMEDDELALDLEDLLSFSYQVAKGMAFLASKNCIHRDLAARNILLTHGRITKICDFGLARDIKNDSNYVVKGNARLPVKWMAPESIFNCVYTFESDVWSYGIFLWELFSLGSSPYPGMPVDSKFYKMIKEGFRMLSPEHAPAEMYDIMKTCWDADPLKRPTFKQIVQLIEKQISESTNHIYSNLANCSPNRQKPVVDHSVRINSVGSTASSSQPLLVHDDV
Sequence of UniProt O00238 (whole entry, looked up): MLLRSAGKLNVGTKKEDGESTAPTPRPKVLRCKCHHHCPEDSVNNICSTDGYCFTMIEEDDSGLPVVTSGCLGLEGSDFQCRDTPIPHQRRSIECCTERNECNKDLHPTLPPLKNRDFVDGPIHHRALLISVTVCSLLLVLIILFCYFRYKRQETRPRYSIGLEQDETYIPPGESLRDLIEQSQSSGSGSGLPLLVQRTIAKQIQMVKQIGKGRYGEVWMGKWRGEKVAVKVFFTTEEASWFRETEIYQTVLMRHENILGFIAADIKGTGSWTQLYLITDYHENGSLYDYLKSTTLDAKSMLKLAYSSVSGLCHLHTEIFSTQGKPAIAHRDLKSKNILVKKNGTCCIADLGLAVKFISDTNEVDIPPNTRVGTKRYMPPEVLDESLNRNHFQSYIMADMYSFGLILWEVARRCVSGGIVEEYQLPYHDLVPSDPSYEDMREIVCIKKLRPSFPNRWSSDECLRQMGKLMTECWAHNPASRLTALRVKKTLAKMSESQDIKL

Sample 1 — host: human; medium: microsomes or S9; concentration: 2 µM; time: 0.5 h; measurement: remaining compound
Compound = Cc1cccc(NC(=N)/N=c2\nc(O)c(Cc3ccccc3)c(C)[nH]2)c1; result = 30.9%
Compound = COc1nc(OC)c2nno/c(=N\Cc3ccc(F)cc3)c2n1; result = 78.7%
Compound = CCc1nn2c(=O)c(CC(=O)OC)c(C)[nH]c2c1-c1ccccc1; result = 95.9%
Compound = Cc1ccc(-c2noc(CCC(=O)NC(C)c3ccc(Cl)cc3)n2)c(=O)n1C(C)C (stereo not shown); result = 1.37%
Compound = O=C(c1ccccc1)N1CC(c2nc(-c3cccnc3)no2)C2(CCOCC2)C1 (stereo not shown); result = 66.7%

Sample 2 — cell line: mouse MPNST tumor cells; method: high-content nuclear imaging; refers to: cell number; concentration: 10 µM; time: 12 h; notes: mean of 2 replicates; reference: plate mean; direction: higher = more cells; measurement: nuclei count
SMILES = C[S+]([O-])c1ccc(-c2nc(-c3ccc(F)cc3)c(-c3ccncc3)[nH]2)cc1 (stereo not shown); result = 2.05 z-score
SMILES = CC(C)(N)c1cc(C(=O)N[C@@H]2CCc3ccc(Oc4ccnc5c4CCC(=O)N5)cc3C2)cc(C(F)(F)F)c1; result = 2.18 z-score
SMILES = Cc1c(Cl)cccc1Nc1ccccc1C(=O)O; result = 0.158 z-score
SMILES = CCn1c(=O)n(C2=C(CO)CN(CC3CCCCCCC3)CC2)c2ccccc21; result = 0.41 z-score

Sample 3 — mode: agonist; measurement: EC50
Target: Beta-1 adrenergic receptor (ADRB1, Homo sapiens, UniProt P08588)
Sequence of UniProt P08588 (whole entry, looked up): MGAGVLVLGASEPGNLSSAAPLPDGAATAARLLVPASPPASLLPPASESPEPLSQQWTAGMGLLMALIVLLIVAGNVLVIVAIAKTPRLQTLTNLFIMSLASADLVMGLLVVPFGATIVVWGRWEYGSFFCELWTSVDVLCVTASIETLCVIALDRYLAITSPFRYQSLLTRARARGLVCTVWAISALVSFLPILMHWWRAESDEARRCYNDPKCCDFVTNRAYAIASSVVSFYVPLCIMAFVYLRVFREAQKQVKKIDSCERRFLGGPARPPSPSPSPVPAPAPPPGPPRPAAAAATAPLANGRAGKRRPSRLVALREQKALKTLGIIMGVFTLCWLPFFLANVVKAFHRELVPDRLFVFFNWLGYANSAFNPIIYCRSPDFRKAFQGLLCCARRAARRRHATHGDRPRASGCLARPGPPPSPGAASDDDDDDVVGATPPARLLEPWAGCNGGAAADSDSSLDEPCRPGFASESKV
Compound = CC(C)N1CCN(c2cc(-c3ccccc3)c3ccccc3n2)CC1; result = ≥ 100 µM
Compound = Cc1noc2c(-c3cccc(O)c3)cc(-c3ccccc3)nc12; result = ≥ 100 µM
Compound = O=c1c2c3c(sc2ncn1CC(O)COc1ccc(Cl)cc1Cl)CCC3 (stereo not shown); result = ≥ 100 µM
Compound = COc1ccccc1N1CCN([S+](=O)([O-])c2ccc(C)c(C)c2C)CC1; result = ≥ 100 µM
Compound = CC#CCn1cc2c3c(cccc31)[C@H](CC(C)C)N[C@H](C(=O)NCc1ccccc1)C2; result = ≥ 100 µM

Sample 4 — read-out: cell-free assay; method: competition with immobilised ligand; concentration: 1 µM; measurement: remaining binding
SMILES: CO[C@@H](C)c1c(Nc2ccc([C@H](N(C)C(=O)C3CCS(=O)(=O)CC3)C(F)(F)F)cc2)cnc2cc(Cl)nn12
target = Mast/stem cell growth factor receptor Kit (KIT, Homo sapiens, UniProt P10721, A829P); result = 100%
target = Dual specificity mitogen-activated protein kinase kinase 7 (MAP2K7, Homo sapiens, UniProt O14733); result = 100%
target = Bone morphogenetic protein receptor type-1B (BMPR1B, Homo sapiens, UniProt O00238); result = 100%
target = Atypical kinase COQ8A, mitochondrial (COQ8A, Homo sapiens, UniProt Q8NI60); result = 100%
target = Serine/threonine-protein kinase WNK2 (WNK2, Homo sapiens, UniProt Q9Y3S1); result = 98%
target = Proto-oncogene tyrosine-protein kinase receptor Ret (RET, Homo sapiens, UniProt P07949, M918T); result = 95%
target = Cyclin-dependent kinase 2 (CDK2, Homo sapiens, UniProt P24941); result = 88%
target = Myotonin-protein kinase (DMPK, Homo sapiens, UniProt Q09013); result = 84%
target = Epidermal growth factor receptor (EGFR, Homo sapiens, UniProt P00533, L858R); result = 88%
target = Mitogen-activated protein kinase 8 (MAPK8, Homo sapiens, UniProt P45983); result = 86%
target = Serine/threonine-protein kinase BRSK1 (BRSK1, Homo sapiens, UniProt Q8TDC3); result = 78%
target = Inhibitor of nuclear factor kappa-B kinase subunit epsilon (IKBKE, Homo sapiens, UniProt Q14164); result = 100%
target = Ephrin type-A receptor 5 (EPHA5, Homo sapiens, UniProt P54756); result = 100%
target = Tyrosine-protein kinase Lck (LCK, Homo sapiens, UniProt P06239); result = 83%

Repeated from above (sample 1):
Compound = Cc1ccc(-c2noc(CCC(=O)NC(C)c3ccc(Cl)cc3)n2)c(=O)n1C(C)C (stereo not shown); result = 1.37%
Compound = CCc1nn2c(=O)c(CC(=O)OC)c(C)[nH]c2c1-c1ccccc1; result = 95.9%
Compound = Cc1cccc(NC(=N)/N=c2\nc(O)c(Cc3ccccc3)c(C)[nH]2)c1; result = 30.9%
Compound = COc1nc(OC)c2nno/c(=N\Cc3ccc(F)cc3)c2n1; result = 78.7%
